Measurements gathered from unrelated publications.
A part holds a random share of what one study measured.

Study 1 — cell line: A-375; tested at: 100 µM; time: 36 h
| Structure (SMILES) | viability |
| --- | --- |
| N[C@@H](C(=O)N[C@@H]1C(=O)N2C(C(=O)O)=C(Cl)CS[C@H]12)c1ccccc1 | 96% |
| C[C@H](CCC(=O)O)[C@H]1CC[C@H]2[C@@H]3[C@H](O)C[C@@H]4C[C@H](O)CC[C@]4(C)[C@H]3CC[C@]12C | 90.8% |
| O[C@H]1[C@H](O)[C@@H](O)[C@H](O)[C@@H](O)[C@H]1O | 125% |
| NCCC(O)(P(=O)(O)O)P(=O)(O)O | 101% |
| CS(=O)(=O)Nc1ccc([N+](=O)[O-])cc1Oc1ccccc1 | 98.1% |
| CCCCCCCCc1ccc(CCC(N)(CO)CO)cc1 | 1.63% |

Study 2 — observed: enzyme activity; mode: inhibitor; tested at: 0.5 µM; relative to: control
Target: Protein-tyrosine kinase 6 (PTK6, Homo sapiens, UniProt Q13882)
Sequence of UniProt Q13882 (whole entry, looked up): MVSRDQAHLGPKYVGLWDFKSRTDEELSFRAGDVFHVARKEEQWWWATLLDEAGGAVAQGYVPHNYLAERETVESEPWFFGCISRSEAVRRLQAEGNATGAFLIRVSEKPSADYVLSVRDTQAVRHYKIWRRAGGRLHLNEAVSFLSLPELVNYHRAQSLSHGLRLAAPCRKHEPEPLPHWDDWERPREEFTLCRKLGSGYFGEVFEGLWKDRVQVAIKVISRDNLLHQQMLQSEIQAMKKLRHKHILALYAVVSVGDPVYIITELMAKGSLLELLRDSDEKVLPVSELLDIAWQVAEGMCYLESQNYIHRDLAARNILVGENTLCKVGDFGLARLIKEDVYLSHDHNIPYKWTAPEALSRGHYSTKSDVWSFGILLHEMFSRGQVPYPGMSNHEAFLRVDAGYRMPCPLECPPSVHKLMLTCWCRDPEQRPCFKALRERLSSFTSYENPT
| Compound | remaining activity |
| --- | --- |
| Nc1[nH]nc2nnc(-c3c(-c4ccccc4)nn4ccccc34)cc12 | 90.8% |
| CC(C)[C@H](CO)Nc1nc(Nc2cccc(Cl)c2)c2ncn(C(C)C)c2n1 | 89.2% |
| CCOc1cc2ncnc(Nc3cccc(Br)c3)c2cc1OCC | 27.7% |
| COc1cc2ncnc(N3CCN(C(=O)Nc4ccc(Oc5ccccc5)cc4)CC3)c2cc1OC | 95.2% |
| O=C(Nc1ccc(Cl)cc1)c1ccccc1NCc1ccncc1 | 63.6% |
| C[S+]([O-])c1ccc(-c2nc(-c3ccncc3)c(-c3ccc(F)cc3)[nH]2)cc1 (stereo not drawn) | 54.2% |
| O=c1cc(N2CCOCC2)oc2c1ccc1ccccc12 | 101% |
| Cc1ccc(NC(=O)c2ccc(CN3CCN(C)CC3)cc2)cc1Nc1nccc(-c2cccnc2)n1 | 93.6% |
| Cn1cnc2cc3c(Nc4cccc(Br)c4)ncnc3cc21 | 54% |
| Cn1cc(/C=C2\C(=O)Nc3ccc(S(N)(=O)=O)cc32)c2ccccc21 | 80.2% |

Study 3 — observed: ligand displacement; tested at: 10 µM
Target: 5-hydroxytryptamine receptor 2B (HTR2B, Homo sapiens, UniProt P41595)
Sequence of UniProt P41595 (whole entry, looked up): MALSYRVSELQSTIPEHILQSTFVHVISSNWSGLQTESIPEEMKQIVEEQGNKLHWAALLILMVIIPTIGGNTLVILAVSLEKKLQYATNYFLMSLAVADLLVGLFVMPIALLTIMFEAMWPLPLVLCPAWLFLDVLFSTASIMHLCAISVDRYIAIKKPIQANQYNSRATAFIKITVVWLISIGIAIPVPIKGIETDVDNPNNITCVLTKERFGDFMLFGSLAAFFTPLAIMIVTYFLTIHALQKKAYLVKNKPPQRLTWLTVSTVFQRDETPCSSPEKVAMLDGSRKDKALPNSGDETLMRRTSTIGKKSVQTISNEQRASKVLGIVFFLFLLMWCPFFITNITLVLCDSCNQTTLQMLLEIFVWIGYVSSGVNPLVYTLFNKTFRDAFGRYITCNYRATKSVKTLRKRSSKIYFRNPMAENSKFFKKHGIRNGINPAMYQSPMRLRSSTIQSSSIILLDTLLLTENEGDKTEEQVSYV
| SMILES | inhibition [%] |
| --- | --- |
| N#CN1CC[C@H](C(=O)Nc2nc3c(s2)CN(C(=O)CN=[N+]=[N-])CC3)C1 | 5.22 |
| Cc1c[nH]c2nccc(Oc3c(F)cc(Nc4cc(Cl)nc(N)n4)cc3F)c12 | 10.4 |
| CCCCN(CCCC)C(=O)CN1C[C@@H](c2cc(OC)c3c(c2)OCO3)[C@H](C(=O)O)[C@H]1CC(C)(C)CCC | 76 |
| CN([C@@H]1CCc2c(CC(=O)O)c3ccccc3n2C1)S(=O)(=O)c1ccc(F)cc1 | -4.07 |
| CC1CCN(c2ccnc(NCc3cn(C)cn3)n2)CC1 | 81.8 |
| COc1ccc2c(c1)O[C@H](c1ccc(OC)c(OC)c1)C[C@@H]2NC(=O)C1(c2ccc3c(c2)OC(F)(F)O3)CC1 | 1.62 |
| Cn1cc(Cl)c2c(Oc3c(F)cc(Nc4cc(Cl)nc(N)n4)cc3F)ccnc21 | 17.3 |
| CN(C)c1ncnc(-c2ccc3nc(Nc4cc(CN5CCN(C(=O)CC(F)(F)F)CC5)ccn4)[nH]c3c2)c1Cl | 39 |
| NS(=O)(=O)c1cc(NC(=O)C2(c3ccccc3Cl)CC2)ccc1Oc1cccc(Cl)c1 | 21.1 |
| O=C(NCc1ncc(C(F)(F)F)cc1Cl)c1ccc2c(c1)C1(CCS(=O)(=O)CC1)[C@@H](C1CC1)N2S(=O)(=O)c1ccc(F)cc1 | -2.32 |

Single results of other studies
| Structure (SMILES) | species | medium | route | dose | time | endpoint | value |
| --- | --- | --- | --- | --- | --- | --- | --- |
| CCOC(=O)CN(C(=O)c1ccn2ncc(-c3ccc(C(=O)NC)cc3)c2c1)c1ccc(Cl)cc1 | C57BL/6 IFN-γ knockout mouse, female | plasma | oral | 10 mg/kg | 4 h | plasma concentration | 115 nM |

Excerpt of the above (study 3):
| SMILES | inhibition [%] |
| --- | --- |
| NS(=O)(=O)c1cc(NC(=O)C2(c3ccccc3Cl)CC2)ccc1Oc1cccc(Cl)c1 | 21.1 |
| CN([C@@H]1CCc2c(CC(=O)O)c3ccccc3n2C1)S(=O)(=O)c1ccc(F)cc1 | -4.07 |
| N#CN1CC[C@H](C(=O)Nc2nc3c(s2)CN(C(=O)CN=[N+]=[N-])CC3)C1 | 5.22 |
